Experimental data collected from several papers.
Every numbered part comes from another study and shows a few of its results, in no order.

Sample 1 — technique: RNA Bind-n-Seq; molecule type: RNA; sample: in vitro; tested at: 100 nM; reference: input RNA pool; reading: higher = stronger binding; endpoint: bound/input enrichment
Target: RING finger protein unkempt homolog, zinc fingers 1-6, SBP tag (UNK, Homo sapiens, UniProt Q9C0B0, residues 30-357)
Chain of UniProt Q9C0B0 (30-357, looked up): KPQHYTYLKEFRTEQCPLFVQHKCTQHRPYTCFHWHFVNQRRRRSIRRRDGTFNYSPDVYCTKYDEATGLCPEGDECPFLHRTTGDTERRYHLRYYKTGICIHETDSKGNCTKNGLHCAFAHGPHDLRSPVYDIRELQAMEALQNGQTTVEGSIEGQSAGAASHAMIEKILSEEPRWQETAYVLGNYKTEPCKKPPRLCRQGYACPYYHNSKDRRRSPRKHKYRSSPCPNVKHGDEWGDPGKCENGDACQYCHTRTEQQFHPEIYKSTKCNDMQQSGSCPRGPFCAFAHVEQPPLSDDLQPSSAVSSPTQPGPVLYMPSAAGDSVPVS
Notes: RNA with constant flanks, vertebrate orthologous sites, ends assumed
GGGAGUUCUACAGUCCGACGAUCCAUUUUCUUACUUUAGGUAUCAUUGCCCAGUGCCCAAGAUCUUUUACGUUCAGCUGACUGUAGGAAAUAAUGAAUUUUUUGGGGAAGGGAAGACUCGACAAGCCGCUAGACACAAUGCCGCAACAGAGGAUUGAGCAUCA: 1.24 ratio
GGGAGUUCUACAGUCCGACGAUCGUUUGUUUCUAAUUUCAAGCAAAAAAAAAUCUUAUUGUACUUGAAUGUGUCCUGUUUUGUUAGCACACCUAGACUUGCUGUAACUGUACUCAUGUCCCAGUAUGUACGUUCUUUCUAUGACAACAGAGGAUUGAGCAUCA: 0.64 ratio
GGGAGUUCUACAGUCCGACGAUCCUGGGCGUCCUCUCUGGGGGGCCGCUGGCCUCUUAGUGUGUUUCAUUUUUGACCUUGACAUAGUAGAUAGGCUUGUGGUUUUUUUAAUUUAAAGAUAUUAAGACUUAAUUCACUAAAAUUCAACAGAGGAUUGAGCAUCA: 0.354 ratio
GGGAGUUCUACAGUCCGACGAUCAACUACUAAAAAAACCAAACCCAAAACUGAACACCAUUUAUAAACGUAUCAGUUCACACAGACCUGCAUUAAACAACUUUUAUAAAUUUUUCAGGGUGUCACUAGAUUUGCUAAAUCUAACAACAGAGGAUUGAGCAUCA: 0.638 ratio
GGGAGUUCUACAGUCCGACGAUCCGUAAAAUAUUGGAUGCAGUGUAUAAAUUAUCCAAGGCAGUGACUUCAGCUUUAUAUAUAUUGGUAGUUUUAAGGUCAUUUACUUUUAUUUAAACUUCUAGAUCGGACUGUUUGCUAUUGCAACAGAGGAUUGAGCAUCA: 0.519 ratio
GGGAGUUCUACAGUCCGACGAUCUUGUUUUGUACAGGGCAUUCUCUGUACGAAUUUGUUGUGGUUAUAAAACAAUUAGAAAAACAGCUUACAUUUGUAUUUAUUUUCUAUUCCAUACCUCUGCCCCAUGUUUUUUCUCCUCAACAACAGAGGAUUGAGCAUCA: 0.481 ratio
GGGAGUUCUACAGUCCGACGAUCGUGUUUUGUACAGGGUAGUCUCUGUACUAGUUUGUUGUGGUUAUAAAAUAAUUAGCAAAACAGCUUACAUUUGUAUUUAUUUUCUAUUCCAUAAUUUUGCCCCAUGUUUUCUUUCAAAAUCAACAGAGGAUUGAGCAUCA: 0.688 ratio
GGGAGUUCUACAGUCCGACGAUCCCCUUCGGAGGGGCAGGGGUGGGUAGGCCAGGUCUGCUGACAACAUCCGCCUGCCAUUUUAGCGUUUUUUUUUUUUUUUUUUUUUUUUUUUAAUUUUAACAGUGCCCUUAUUUCCUGUACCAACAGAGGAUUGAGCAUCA: 7.4 ratio
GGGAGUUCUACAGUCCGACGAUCAAAUUUAUUUCAUGCCCUGGACUCCAUAUCGUACCGAUACUUUAAUAGAAUAUGCUUCUUUAGAAGAUUUCCAAAAUAGUCGCCAAACAACAACAUAUAAACUUCCAAAUCGAGUAGAUGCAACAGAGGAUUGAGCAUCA: 2.38 ratio
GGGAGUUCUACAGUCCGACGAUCGGGAGAUAUUGAAUAGUAUUAAACAUUUUCGUCUUCCUUUACCUUUUAUCCCCUAAUACCUAGUCUACUUUUUUAAAUUUCAGACUUCACUGCUCUUUGAAUUGAUAAUUCCAAUUUUCACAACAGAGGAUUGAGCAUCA: 1.73 ratio
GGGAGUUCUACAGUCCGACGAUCAAUCAGUAGAAUUACGUAAUACUAAAGUUGCAGUUGAAAGGAUAUCCAAGUAUGUGUUGGUAGUUACUAAAAGAAUUAUAGCUGUUAUUGCCUUGUAUUUAUAGCCCUGUUUCAGGUUUCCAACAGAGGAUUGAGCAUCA: 1.06 ratio

Sample 2 — technique: competition protein-binding microarray; molecule type: double-stranded DNA, one strand shown; sample: in vitro; tested at: 2 µM; added: Pho4 competitor, 0.05 µM; reading: higher = stronger binding; endpoint: fluorescence intensity
Target: Centromere-binding protein 1, full length, His-tagged (CBF1, Saccharomyces cerevisiae, UniProt P17106, residues 1-351)
Chain of UniProt P17106 (whole entry, looked up): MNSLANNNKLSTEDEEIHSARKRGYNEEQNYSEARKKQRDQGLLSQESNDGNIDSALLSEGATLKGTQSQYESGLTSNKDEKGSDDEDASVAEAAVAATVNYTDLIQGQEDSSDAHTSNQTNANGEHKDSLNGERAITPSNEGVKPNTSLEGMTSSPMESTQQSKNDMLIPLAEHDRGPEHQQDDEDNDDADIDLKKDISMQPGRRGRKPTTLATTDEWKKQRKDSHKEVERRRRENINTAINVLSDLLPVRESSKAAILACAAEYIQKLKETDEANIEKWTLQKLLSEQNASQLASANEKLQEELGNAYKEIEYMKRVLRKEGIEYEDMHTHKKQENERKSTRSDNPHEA
Notes: whole 60-bp probe, lowest competitor level
CGTCCTAGTGATTGGCAAGTGGGTGCCATGAGGAAGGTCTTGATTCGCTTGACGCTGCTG: 75 a.u.
CCTGCCCGGTCTCCACACGTGGGTAGCCAGAGCCCGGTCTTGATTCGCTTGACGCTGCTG: 346 a.u.
CGTCCTAGTGATTGTATGGTGGGTGCCATGAGGAAGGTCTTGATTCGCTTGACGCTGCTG: 85.4 a.u.
TGCGCAACAACTTGGCGCGTGGGTGTATGTCTAGAAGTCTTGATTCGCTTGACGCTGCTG: 80.3 a.u.
AAACATGGGAGTGGCATCTCATAATGTTGCTGCTCCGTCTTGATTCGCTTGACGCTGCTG: 73.7 a.u.
CGGGGTTAAGTTTGACAGGTGGGTGGCTTGCAGCAGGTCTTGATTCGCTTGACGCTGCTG: 62.9 a.u.
AAAGCGGTAATTTGTGGGGTGGGTGCAGATATCTATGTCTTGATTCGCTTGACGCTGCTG: 84.6 a.u.
CTTTCCCGATCTTGCCTAGTGGGTGTAGCACATTTGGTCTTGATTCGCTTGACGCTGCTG: 65 a.u.
TGCGCAACAACTTCTCACGTGTTTTTATGTCTAGAAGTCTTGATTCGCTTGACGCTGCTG: 1570 a.u.
AACAAGGGCATTTTTCACGTGCCGATGAGCAGCAAGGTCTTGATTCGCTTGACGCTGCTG: 870 a.u.
GAGAAATAGTCATCGTTTTCAACGGAAGCTGAAATAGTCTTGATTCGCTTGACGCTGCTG: 79.4 a.u.
GTTTTGAATGTTTTCCTCGTGTGGAAGTAGAGTAGGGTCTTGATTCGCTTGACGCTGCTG: 87.4 a.u.
CATATGGTATGATTGCACGTGGGACTCTAGGGGAAGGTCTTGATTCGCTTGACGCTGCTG: 1050 a.u.
AAAGCGGTAATTTGAGGCGTGGGTGCAGATATCTATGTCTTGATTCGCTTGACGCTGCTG: 73.1 a.u.
GTCTTGTCTCATTGTCACCCCACTTTCCCCACTTCAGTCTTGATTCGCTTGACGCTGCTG: 82.3 a.u.
TAGTCCTACAAAACCGGCGTGGGTACATAGATTTTCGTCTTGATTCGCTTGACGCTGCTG: 51.9 a.u.
GAAGAGGACGAAGACGACGTGGTGAAAGAAGACGAAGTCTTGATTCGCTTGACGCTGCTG: 66.1 a.u.
AAGATATCTTTTTGTCATGTGATGGTACATCGTTTGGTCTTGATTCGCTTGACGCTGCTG: 901 a.u.
ACCCTCAAGCTTTGGCGCGTGCGGATCTATATAAGGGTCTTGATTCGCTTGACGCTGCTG: 91.3 a.u.
CTTCTGTAAATTTTTCACGTGGACTGACGCGCCCCGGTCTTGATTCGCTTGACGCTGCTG: 595 a.u.
CTAACGAAGGTTTGTCTGGTGGGTGACAAGCCAAGTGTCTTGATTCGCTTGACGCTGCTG: 68.3 a.u.
TTATCTAGCTCTGCCCACATGTGTGTTAACGAAGCAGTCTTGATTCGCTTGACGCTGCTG: 109 a.u.
GCGGGCCGCTTTCCGCACGGCCTTATCTGGGGAATGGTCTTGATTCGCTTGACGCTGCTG: 57 a.u.
AAAGCGGTAATTTTTCACGTGCGTTCACATATCTATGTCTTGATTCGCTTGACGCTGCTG: 1040 a.u.

Sample 3 — technique: protein binding microarray; molecule type: double-stranded DNA, one strand shown; sample: in vitro; tested at: not given; reference: not given; reading: higher = stronger binding; endpoint: E-score
Target: Histone acetyltransferase KAT6A, winged helix 2, GST fusion (KAT6A, Homo sapiens, UniProt Q92794, residues 85-181)
Notes: 8-mer, flanks averaged, mean of 2 arrays, mostly near background
Construct (chain): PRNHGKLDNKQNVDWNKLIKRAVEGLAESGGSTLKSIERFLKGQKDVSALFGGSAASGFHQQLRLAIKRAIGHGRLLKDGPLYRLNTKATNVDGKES
TAGACTAA: -0.136
CGACCCAA: 0.181
CCAACTTC: -0.194
CAGGCACA: -0.0635
ATGATGTG: -0.104
ACAATAAT: 0.0163
GATAAATA: -0.0372
CTGAGGGA: -0.104
AATAGACA: -0.0209
CCTCACCC: 0.105
AATCGATA: 0.0449
TCTCAGCA: 0.0341
ACTTAGCA: -0.039
CCAACATA: 0.152
GCACCCAC: 0.248
ACCGTAAA: -0.15
CGAGCACG: -0.0536
CGGTTGTC: 0.0354
ACTAACTG: -0.214
CGGCTGGA: 0.156
TCCTGTCA: 0.0225
CATGGCGC: 0.02
ATGTATCG: -0.026
CTCGCCAA: 0.071
ACCAAAAT: 0.0505

Sample 4 — technique: RNA Bind-n-Seq; molecule type: RNA; sample: in vitro; tested at: 365 nM; reference: no-protein control; reading: higher = stronger binding; endpoint: RBNS enrichment (R)
Target: RNA binding protein fox-1 homolog 2, RRM domain, GST-SBP tag (RBFOX2, Homo sapiens, UniProt O43251-10, residues 100-194)
Notes: natural RNA segment, single round, ends assumed
Construct (chain): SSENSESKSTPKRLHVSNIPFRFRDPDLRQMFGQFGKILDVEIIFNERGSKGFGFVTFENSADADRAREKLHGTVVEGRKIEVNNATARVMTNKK
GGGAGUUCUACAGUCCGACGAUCGCUGGAGAAAGAAGGAAGAAAUGGUUUUCUUAAAUACCUACAAAAAAGUUACUGUGGUAUCUAUGAGUUAUCAUCUUAGCUGUGUUAAAAAUGAAUUUUUACUAUGGCAGUGGAAUUCUCGGGUGCCAA: 0.457
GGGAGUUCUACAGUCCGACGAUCAGUGCUUUGUACUGUCAACUGCAUUAUCUUUAAUUAUUUAAAGGUAGAAUUAUUUAAUUUUGUGAUUUGUUCUUCCAUAUGACAUUGAGCAAAUAGAUCUGUUUCAAAAUUGGAAUUCUCGGGUGCCAA: 0.569
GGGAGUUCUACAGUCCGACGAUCUUGUUUAAACGCAAAGCUUUGUAAAAGCCACAAGGUCUGAGCUGAACCCCUCCUUUUUGAACUUACUGUGACAAGCACAGGAACGGUCAGAAACUGGGCUCAUCACACCAUGGAAUUCUCGGGUGCCAA: 0.297
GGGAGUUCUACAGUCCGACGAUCCCAUAACCCCAGACCAAAGAGGUUCUCUAAGCAGCUGUGACCAGGUUCCUCCCUCCCCACCUGCCCUCCUAGCUCCAGCACUGCCCCCGUGGCAGCCCACUUGGACCCCCUGGAAUUCUCGGGUGCCAA: 0.668
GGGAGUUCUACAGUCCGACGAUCCUGGCUGACAGAUGCUGCUCUUGGGCACCUGUCCCCACCCCACCUGCCCUGCUGUCCUCUGUAUCACACAAGACGUCUCGCUUGCUGUGUCGUGGUUUAGCUCCUCGGUGUGGAAUUCUCGGGUGCCAA: 0.37
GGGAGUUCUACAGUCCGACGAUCGACAGCAACAAGAUUUUAAUCACCUGGUCACCAGACCCUCACGGCCCAUAUCCAAUUCGAAUUUCAGAAAUUUCUCUGUUUGCUUUAAAUAACUCUUUACAAAUAAGGGUUGGAAUUCUCGGGUGCCAA: 0.557
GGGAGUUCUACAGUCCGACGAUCUUUUUGCAUUUUACUCACUUGAUAAGUCUGCUCCACUGGUUUCAUCAGAUAGACUUGCUGCUACUGGCUUUUCCAUUGUAGAUUGGGUUAUUUUACACGCAGUUCGCCAAUGGAAUUCUCGGGUGCCAA: 1.52
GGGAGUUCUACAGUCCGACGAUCCCCUCACCUCCUGCCAAGGGGAGAGAUCUAUUUCUACUACACGCUGUCUCUCCCAGUACAUCCCCGGAUUGGUGUGGGUAGAUAGGCCAACGUAUGGUGAUCUCCCCUAGUGGAAUUCUCGGGUGCCAA: 0.315
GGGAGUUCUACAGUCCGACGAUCUUCCUCACUGAAACAAGUUAUUUUUGCUUCAUAUAGUCAGAGUCAGACUGACAUGAUAAAAUAUCAUGUUCCUAAUCUGUUGUCUCAGAUAAGUGACCAAGACGGGACUUUGGAAUUCUCGGGUGCCAA: 0.204

Some of these lines once more (sample 2):
AAACATGGGAGTGGCATCTCATAATGTTGCTGCTCCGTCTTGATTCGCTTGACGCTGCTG: 73.7 a.u.
CATATGGTATGATTGCACGTGGGACTCTAGGGGAAGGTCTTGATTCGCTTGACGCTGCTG: 1050 a.u.
CTTCTGTAAATTTTTCACGTGGACTGACGCGCCCCGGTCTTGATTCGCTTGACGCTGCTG: 595 a.u.
AAGATATCTTTTTGTCATGTGATGGTACATCGTTTGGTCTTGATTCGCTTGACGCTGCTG: 901 a.u.
CCTGCCCGGTCTCCACACGTGGGTAGCCAGAGCCCGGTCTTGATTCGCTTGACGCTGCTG: 346 a.u.
CGTCCTAGTGATTGTATGGTGGGTGCCATGAGGAAGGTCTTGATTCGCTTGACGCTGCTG: 85.4 a.u.
AACAAGGGCATTTTTCACGTGCCGATGAGCAGCAAGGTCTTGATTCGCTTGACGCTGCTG: 870 a.u.
CTAACGAAGGTTTGTCTGGTGGGTGACAAGCCAAGTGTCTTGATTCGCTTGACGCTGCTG: 68.3 a.u.
